Earlier results, collected from citations in different studies.
Each line is one published result; not all experiments were run side by side. “And” joins repeats or separate records; there may be more than shown. Numbers after ± are the reported error. In brackets after ≈: the same amount, converted by molar mass.

With `Cc1ccc(C(C)C)cc1.O=C(N=P(c1ccccc1)(c1ccccc1)c1ccccc1)c1ccccn1.[Cl-].[Cl][Ru+]` the half-life was 60 h (water).
`CC(C)[C@H](NC(=O)[C@H](Cc1ccc(O)cc1)NC(=O)[C@H](CS)NC(=O)[C@@H](NC(=O)[C@H](CCCNC(=N)N)NC(=O)[C@H](Cc1ccccc1)NC(=O)[C@H](CS)NC(=O)[C@H](Cc1c[nH]c2ccccc12)NC(=O)[C@@H](N)CCCNC(=N)N)C(C)C)C(=O)NCC(=O)N[C@@H](Cc1ccccc1)C(=O)N[C@@H](CS)C(=O)N[C@@H](Cc1ccc(O)cc1)C(=O)N[C@@H](Cc1c[nH]c2ccccc12)C(=O)N[C@@H](CCCCN)C(=O)N[C@@H](CS)C(=O)N[C@@H](CCCNC(=N)N)C(=O)O` has an MIC of over 128 µM (Staphylococcus aureus).
`C[C@@H]1O[C@@H](O[C@H]2[C@H](O)[C@@H](O)[C@H](OC[C@H]3O[C@@H](O[C@H]4CC[C@@]5(C)[C@@H](CC[C@]6(C)[C@@H]5C=C[C@]57OC[C@@]8(CCC(C)(C)C[C@H]85)[C@@H](O)C[C@]76C)[C@]4(C)CO)[C@H](O)[C@@H](O)[C@@H]3O)O[C@@H]2CO)[C@H](O)[C@H](O)[C@H]1O` gave a logP of -0.37.
`C=Cc1c(C)c2cc3nc(c(CC(=O)[O-])c4[n-]c(cc5nc(cc1[n-]2)C(C)=C5CC)c(C)c4C(=O)[O-])C(CCC(=O)[O-])C3C.[Cu+2].[Na+].[Na+].[Na+]` (centres unmarked) has a tolerated dose of over 500 mg (healthy human volunteers; oral, phase I).
With `COC(=O)OC1C(=O)C2(C)C(O)CC3OCC3(OC(C)=O)C2C(OC(=O)c2cccc(OC(F)F)c2)C2(O)CC(OC(=O)C(O)C(C=C(C)C)NC(=O)OC(C)(C)C)C(C)=C1C2(C)C` (centres unmarked) the IC50 was 1.28 nM (HCT-116; cytotoxicity).
With `Cc1ccc(C(C)C)cc1.F[P-](F)(F)(F)(F)F.[Cl][Os+]1[N]2C=CC=c3ccc4c(c32)[N]1C=CC=4` the aquation half-life was 9 h (45 °C).
The Km of `c1ccc2cc3c(ccc4ccccc43)cc2c1` is reported as 0.09 µM (substrate; human liver microsomes).
With `O=C(O)C(F)(OC(F)(F)C(F)(F)C(F)(F)F)C(F)(F)F` (centres unmarked) the pKa was 2.84 (potentiometry).
`Clc1ccc(C(c2ccc(Cl)cc2)C(Cl)(Cl)Cl)cc1` has a log Kow of 6.91.
`CC[C@H](C)[C@H](NC(=O)[C@H](CCCCN)NC(=O)[C@H](CCC(N)=O)NC(=O)[C@H](C)NC(=O)[C@H](Cc1ccc(O)cc1)NC(=O)[C@H](CCC(=O)O)NC(=O)[C@H](CCCCN)NC(=O)[C@H](C)NC(=O)[C@H](CC(C)C)NC(=O)[C@H](CCCNC(=N)N)NC(=O)[C@H](CC(C)C)NC(=O)CNC(=O)[C@H](CCCCN)NC(=O)[C@H](C)NC(=O)[C@H](CCCNC(=N)N)NC(=O)[C@H](CC(C)C)NC(=O)[C@H](CCCCN)NC(=O)[C@H](CCC(N)=O)NC(=O)[C@H](C)NC(=O)[C@H](CC(C)C)NC(=O)[C@H](CCCCN)NC(=O)[C@H](CO)NC(=O)[C@H](CCCCN)NC(=O)[C@@H](N)Cc1c[nH]c2ccccc12)C(=O)N[C@@H](CC(C)C)C(=O)N[C@@H](CC(N)=O)C(=O)O` has an MIC of 8 µM (≈ 24.4 µg/mL) (Staphylococcus aureus).
`COc1nc(-c2cc(C)c(NC(C)c3ccc(F)cc3)nn2)ccc1-n1cnc(C)c1` (centres unmarked) — result for “maximum tolerated dose”: 100 mg/kg/day (mouse).
`[Mn+2].[NH3+]CCN1CCN(CC(=O)[O-])Cc2cccc(n2)CN(CC(=O)[O-])CC1` gave a half-life of 54.4 h (transmetallation, added: Zn(II) 25 mM).
The MTD of `CN[C@H](CC(C)C)C(=O)N[C@H]1C(=O)N[C@@H](CC(N)=O)C(=O)N[C@H]2C(=O)N[C@H]3C(=O)N[C@H](C(=O)N[C@H](C(=O)O)c4cc(O)cc(O)c4-c4cc3ccc4O)[C@H](O)c3ccc(c(Cl)c3)Oc3cc2cc(c3O[C@@H]2O[C@H](CO)[C@@H](O)[C@H](O)[C@H]2O[C@H]2C[C@](C)(NCc3ccc(-c4ccc(Cl)cc4)cc3)[C@H](O)[C@H](C)O2)Oc2ccc(cc2Cl)[C@H]1O` is reported as 75 mg/kg (mouse).
For `[Cl-].[Cl-].[Ru+2].c1ccc(-c2ccccn2)nc1.c1ccc(-c2ccccn2)nc1.c1ccc2cc3nc4c5cccnc5c5ncccc5c4nc3cc2c1`, “singlet oxygen quantum yield” read 0.75 (acetonitrile).
For `CC[C@H](C)[C@H](NC(=O)[C@H](CCCN)NC(=O)[C@H](CCCNC(=N)N)NC(=O)[C@@H]1CCCN1C(=O)[C@@H]1CCCN1C(=O)[C@H](CCCNC(=N)N)NC(=O)[C@@H]1CCCN1C(=O)[C@H](CCCNC(=N)N)NC(=O)[C@@H]1CCCN1C(=O)[C@H](CC(C)C)NC(=O)[C@H](Cc1ccc(O)cc1)NC(=O)[C@@H]1CCCN1C(=O)[C@@H]1CCCN1C(=O)[C@H](CCCCN)NC(=O)[C@H](CC(=O)O)NC(=O)[C@@H](N)C(C)C)C(=O)N[C@@H](Cc1ccc(O)cc1)C(=O)N[C@@H](CC(N)=O)C(=O)N[C@@H](CCCN)C(N)=O`, the half-life was 3 h and ~3 h (mouse serum).
`CC[C@H](C)[C@@H]1NC(=O)[C@@H]2CSSC[C@@H](C(=O)N[C@@H](CO)C(=O)N[C@@H](CC(C)C)C(=O)N[C@@H](CO)C(=O)N[C@H](C(=O)N[C@@H](C)C(=O)N[C@@H](CCC(N)=O)C(=O)N[C@@H](CCC(=O)O)C(=O)O)C(C)C)NC(=O)[C@H](CCCNC(=N)N)NC(=O)[C@H](CCCNC(=N)N)NC(=O)[C@H](CCCCN)NC(=O)[C@H](CCCNC(=N)N)NC(=O)[C@H](CSSC[C@H](NC(=O)[C@H](CO)NC(=O)[C@H](C)NC(=O)CNC(=O)[C@@H](NC(=O)[C@@H]3CCCN3C(=O)[C@H](CCCNC(=N)N)NC(=O)[C@H](CC(C)C)NC(=O)[C@H](CO)NC(=O)[C@@H](NC(=O)CNC(=O)[C@H](CCCNC(=N)N)NC(=O)[C@H](Cc3c[nH]c4ccccc34)NC(=O)[C@H](Cc3ccccc3)NC(=O)[C@@H]3CCCN3C(=O)[C@@H](NC(=O)[C@@H](N)CCSC)[C@@H](C)O)C(C)C)[C@@H](C)CC)C(=O)N[C@@H](CCCNC(=N)N)C(=O)N[C@@H](CC(=O)O)C(=O)N[C@@H](CC(=O)O)C(=O)N[C@@H](CO)C(=O)N[C@@H](CCC(=O)O)C(=O)N2)NC(=O)[C@H](CC(C)C)NC(=O)[C@H](CCCNC(=N)N)NC(=O)[C@H]([C@@H](C)O)NC1=O` gave a plasma half-life of 9.1 ± 2.5 min (human, plasma).
The half-life of `CCc1nn(C)c2nc(-c3ccc(C(=O)O)cc3)nc(NCc3ccccc3)c12` is reported as 0.9 h (mouse).
The water solubility of `Brc1ccc(Oc2ccc(Br)cc2Br)c(Br)c1` is reported as 0.015 µg/mL (≈ 0.0309 µM) (25 °C).
For `C[C@]12C=CC(=O)C=C1[C@@H](CSC[C@H](N)C(=O)O)CC1C2CC[C@]2(C)C(=O)CCC12` (some centres unmarked), the plasma concentration was 0.022 ± 0.0029 µM (women taking exemestane, plasma; dose not given).
For `CC(=O)OC1C(=O)C2(C)C(O)CC3OCC3(OC(C)=O)C2C(OC(=O)c2cccc(OC(F)F)c2)C2(O)CC(OC(=O)C(O)C(C=C(C)C)NC(=O)OC(C)(C)C)C(C)=C1C2(C)C` (centres unmarked), the IC50 was 1.73 nM (HCT-116; cytotoxicity).

Excerpt of the above:
For `CC[C@H](C)[C@H](NC(=O)[C@H](CCCN)NC(=O)[C@H](CCCNC(=N)N)NC(=O)[C@@H]1CCCN1C(=O)[C@@H]1CCCN1C(=O)[C@H](CCCNC(=N)N)NC(=O)[C@@H]1CCCN1C(=O)[C@H](CCCNC(=N)N)NC(=O)[C@@H]1CCCN1C(=O)[C@H](CC(C)C)NC(=O)[C@H](Cc1ccc(O)cc1)NC(=O)[C@@H]1CCCN1C(=O)[C@@H]1CCCN1C(=O)[C@H](CCCCN)NC(=O)[C@H](CC(=O)O)NC(=O)[C@@H](N)C(C)C)C(=O)N[C@@H](Cc1ccc(O)cc1)C(=O)N[C@@H](CC(N)=O)C(=O)N[C@@H](CCCN)C(N)=O`, the half-life was 3 h and ~3 h (mouse serum).
With `Cc1ccc(C(C)C)cc1.F[P-](F)(F)(F)(F)F.[Cl][Os+]1[N]2C=CC=c3ccc4c(c32)[N]1C=CC=4` the aquation half-life was 9 h (45 °C).
`[Mn+2].[NH3+]CCN1CCN(CC(=O)[O-])Cc2cccc(n2)CN(CC(=O)[O-])CC1` gave a half-life of 54.4 h (transmetallation, added: Zn(II) 25 mM).
